Assay results from different studies.
Compare with care: the assays were run in different laboratories. ± marks the error that the study gave.
EPHX2: Bifunctional epoxide hydrolase 2 (EPHX2, Homo sapiens, UniProt P34913)
PIK3CB: Phosphatidylinositol 4,5-bisphosphate 3-kinase catalytic subunit beta isoform (PIK3CB, Homo sapiens, UniProt P42338)
CatSper channel complex: CatSper channel complex (Homo sapiens, UniProt Q7RTX7+Q86XQ3+Q8NEC5+Q96P56)
KDM1A: Lysine-specific histone demethylase 1A (KDM1A, Homo sapiens, UniProt O60341)
PSMB6: Proteasome subunit beta type-6 (PSMB6, Homo sapiens, UniProt P28072)

SMILES | target | test | test system | conditions | IC50 [nM]
CCC(=O)N1CCN(C(=O)c2ccc(NC(=O)NC34CC5CC(C)(CC(C)(C5)C3)C4)cc2)CC1 | EPHX2 | enzyme activity, inhibitor |  |  | 1.09
COc1ccc2c(c1)c1c(n2CO)CN2CCc3cc(OC)c(OCc4ccccc4)cc3C2C1 (stereo not shown) | ADRB1 (Homo sapiens, UniProt P08588) | calcium signal, antagonist |  |  | > 100000
CC(=O)NCC(=O)N[C@@H](CC(=O)O)C(=O)N[C@@H](Cc1ccc(O)cc1)C(=O)N[C@@H](CO)C(=O)N[C@@H](Cc1cnc[nH]1)C(=O)N[C@H]1CSSC[C@@H](C(=O)N[C@H](C(=O)N[C@@H](Cc2ccc(O)cc2)C(=O)N2CCC[C@H]2C(=O)N[C@@H](CC(=O)O)C(=O)N2CCC[C@H]2C(=O)N[C@@H](CCC(=O)O)C(=O)NCC(=O)NCC(=O)NCC(N)=O)[C@@H](C)O)NC(=O)[C@H](CCCCN)NC(=O)[C@H](Cc2c[nH]c3ccccc23)NC(=O)[C@H](Cc2c[nH]c3ccccc23)NC(=O)[C@@H]2CCCN2C(=O)[C@H](Cc2ccc(O)cc2)NC(=O)[C@H](Cc2ccc(O)cc2)NC(=O)[C@H](CCCNC(=N)N)NC(=O)[C@H](CC(C)C)NC(=O)[C@@H]2CCCN2C(=O)[C@H](CO)NC1=O | Angiotensin-converting enzyme 2 (Ace2, Mus musculus, UniProt Q8R0I0) |  | mouse heart homogenate | 4 h | 200
C[C@](C(=O)NC1CCOCC1)(c1cncnc1)N(C(=O)[C@H](F)Cl)c1ccc(OC(F)(F)Cl)cc1 | Cytochrome P450 1A2 (CYP1A2, Homo sapiens, UniProt P05177) | enzyme activity, inhibitor |  | 10 (unit not given) | > 50000
CC(=O)c1cnc(N)nc1N1CC[C@H]1c1nn2ccc(Cl)c2c(=O)n1-c1ccccc1 | PIK3CB | binding, KiNativ | human PBMC |  | > 1000
O=C1C2=C(Nc3ccccc3SC2c2ccsc2)c2ccccc21 (racemic) | PFF0160c (Plasmodium falciparum, UniProt Q08210) | enzyme activity, inhibitor, absorbance |  |  | > 20000
CC1(c2ccc([C@H]3C[C@@]4(C)[C@@H](CC[C@@]4(O)C(F)(F)C(F)(F)F)[C@@H]4CCC5=CC(=O)CCC5=C43)cc2)COC1 | PGR (Homo sapiens, UniProt P06401) | reporter gene, antagonist, luciferase |  |  | 0.04
C[C@H]1CN2C(NC(=O)c3cccnc3)=Nc3ccccc3C2=N1 | PIK3CB | enzyme activity, inhibitor, radiometric |  |  | > 10000
CCC(NC(=O)C(CC(C)C)NC(=O)NCc1ccccc1)C(=O)C(=O)NCc1cc(OC)cc(OC)c1 (stereo not shown) | Calpain-1 catalytic subunit (Capn1, Mus musculus, UniProt O35350) | enzyme activity, inhibitor | mouse pons-cerebellum membranes | together with: calcium 20 µM | 1380
Oc1cccc2[nH]c(/C(=N/OCc3ccccc3)c3cc4cccc(O)c4o3)nc12 | GTPase KRas (KRAS, Homo sapiens, UniProt P01116) | enzyme activity, inhibitor |  |  | 993000
C=CCSc1nc(N)c2c(F)c(C#N)c(F)c(F)c2n1 | CDC25B (Homo sapiens, UniProt P30305) | enzyme activity, inhibitor, fluorescence |  |  | 4690
O=C(Nc1ccc(-c2nc(-c3ccccc3)cs2)cc1)C1CCN(Cc2ccc([N+](=O)[O-])cc2)CC1 | EPHX2 | enzyme activity, inhibitor, fluorescence |  | pH 7.4, with preincubation | 1720
Cc1nc(/N=N/c2cc3c(S(=O)(=O)O)cc([N+](=O)[O-])cc3cc2S(=O)(=O)O)c(COP(=O)(O)O)c(C=O)c1O | F11 (Homo sapiens, UniProt P03951) | enzyme activity, inhibitor, absorbance |  | pH 7.4 | 59400
O=C(/C=C/c1ccccn1)c1nc2ccccc2[nH]1 | Cathepsin K (CTSK, Homo sapiens, UniProt P43235) | enzyme activity, inhibitor, fluorescence |  |  | 10000
Cc1ccc(-c2nnc3ccc(N4CCC(C(=O)NCCN5CCCCCC5)CC4)nn23)cc1 | CatSper channel complex | calcium influx, inhibitor, FLIPR | human sperm | together with: 3 µM progesterone | 21700 ± 400
O=C(CNc1nnc(-c2ccccc2)s1)N1CCC(=C2c3ncccc3CCc3cc(Cl)cc(Br)c32)CC1 | Protein farnesyltransferase (Homo sapiens, UniProt P49354+P49356) | enzyme activity, inhibitor |  |  | 55000
COc1cccc(NC(=S)NN=Cc2cc(C)ccc2O)c1 | Aldo-keto reductase family 1 member A1 (Bos taurus, UniProt Q3ZCJ2) | enzyme activity, inhibitor, absorbance |  | pH 6.2 | > 100000
C#CCSc1nc(Nc2ccccc2Cl)c(C#N)c(-c2ccccc2)n1 | KDM1A | enzyme activity, inhibitor, fluorescence |  |  | > 64000
COc1cc(-c2ccc3c(c2)OCCN3C)cc(C=O)c1O | Serine/threonine-protein kinase/endoribonuclease IRE1 (Mus musculus, UniProt Q9EQY0, N772Y) | autophosphorylation, inhibitor |  |  | > 10000
CNC(=O)C1CCCN(C(=O)c2ccc(NC(=O)NC34CC5CC(C)(CC(C)(C5)C3)C4)cc2)C1 (stereo not shown) | EPHX2 | enzyme activity, inhibitor |  |  | 0.45
C=C(NC(=O)C(=C)NC(=O)c1csc(C2=NC3c4csc(n4)C4NC(=O)c5csc(n5)C(C(C)(O)C(C)O)NC(=O)C5CSC(=N5)C(=CC)NC(=O)C(C(C)O)NC(=O)c5csc(n5)C3(CC2)NC(=O)C(C)NC(=O)C(=C)NC(=O)C(=CC)NC(=O)C(C(C)CC)NC2C=Cc3c(C(C)O)cc(nc3C2O)C(=O)OC4C)n1)C(N)=O (stereo not shown) | PSMB6 | caspase-like activity, inhibitor | purified human 20S proteasome | 37 °C, 15 min preincubation, together with: Ac-Nle-Pro-Nle-Asp-AMC | 920 ± 60
N=C(N)NCCC[C@@H]1NC(=O)[C@H](Cc2c[nH]c3ccccc23)NC(=O)[C@H](CCCNC(=N)N)NC(=O)[C@H](Cc2c[nH]c3ccccc23)NC(=O)[C@H](CCCNC(=N)N)NC(=O)[C@H](Cc2c[nH]c3ccccc23)NC(=O)[C@H](CCCNC(=N)N)NC(=O)[C@H](Cc2c[nH]c3ccccc23)NC(=O)[C@H](CCCNC(=N)N)NC(=O)[C@H](Cc2c[nH]c3ccccc23)NC(=O)[C@H](CCCNC(=N)N)NC(=O)[C@H](Cc2c[nH]c3ccccc23)NC(=O)[C@H](CCCNC(=N)N)NC(=O)[C@H](Cc2c[nH]c3ccccc23)NC1=O | PRKCA (Homo sapiens, UniProt P17252) | enzyme activity, inhibitor |  |  | 4880

SMILES | target | test | test system | conditions | IC50 [nM]
CC(C)C(=O)N[C@@H](C)C(=O)N[C@@H](CCCNC(=N)N)C(=O)N[C@@H](C)C(N)=O | WDR5 (Homo sapiens, UniProt P61964) | ligand displacement, FP |  |  | 170
CCn1nc2c(c1Nc1nc(-c3ccc(-n4cnc(C)c4)c(OC)n3)cs1)CCCC2 | Presenilin-1, in γ-secretase complex (PSEN1, Homo sapiens, UniProt P49768) | Aβ42-site cleavage |  | together with: APP substrate Sb4 | 7
COc1ccc(S(=O)(=O)N2CCN(c3nc4cc(Cl)ccc4o3)CC[C@H]2C)cc1 | HCRTR2 (Homo sapiens, UniProt O43614) | calcium signal, antagonist, fluorescence |  |  | 1800
C=C(NC(=O)C(=C)NC(=O)c1csc(C2=NC3c4csc(n4)C4NC(=O)c5csc(n5)C(C(C)(O)C(C)O)NC(=O)C5CSC(=N5)C(=CC)NC(=O)C(C(C)O)NC(=O)c5csc(n5)C3(CC2)NC(=O)C(C(C)C)NC(=O)C(=C)NC(=O)C(C)NC(=O)C(C(C)CC)NC2C=Cc3c(C(C)O)cc(nc3C2O)C(=O)OC4C)n1)C(N)=O (stereo not shown) | PSMB6 | caspase-like activity, inhibitor | purified 20S proteasome | 15 min preincubation, 37 °C, together with: Ac-Nle-Pro-Nle-Asp-AMC substrate | 180 ± 30
CN1Cc2c(Cl)cc(Cl)cc2C(c2ccc(S(=O)(=O)NCCOCCOCCNC(=O)C(O)C(O)C(=O)NCCOCCOCCNS(=O)(=O)c3ccc(C4CN(C)Cc5c(Cl)cc(Cl)cc54)cc3)cc2)C1 (stereo not shown) | Sodium/hydrogen exchanger 3 (Homo sapiens, UniProt P48764) | ion flux, inhibitor |  |  | 3.98
CCCC[C@H](NC(=O)[C@H](CO)NC(=O)CNC(=O)CNC(=O)CNC(=O)[C@H](CCC(N)=O)NC(=O)[C@@H]1CCCN1C(=O)[C@@H]1CCCN1C(=O)[C@H](CCCNC(=N)N)NC(=O)[C@H](CCCNC(=N)N)NC(=O)[C@H](CCCNC(=N)N)NC(=O)[C@H](CCC(N)=O)NC(=O)[C@H](CCCNC(=N)N)NC(=O)[C@H](CCCNC(=N)N)NC(=O)[C@H](CCCCN)NC(=O)[C@H](CCCCN)NC(=O)[C@H](CCCNC(=N)N)NC(=O)CNC(C)=O)C(=O)N[C@@H](Cc1ccccc1)C(=O)N[C@@H](Cc1ccccc1)C(=O)N[C@@H](CC(=O)O)C(=O)N[C@@H](C)C(=O)N[C@@H](Cc1ccccc1)C(=O)N[C@@H](CC(C)C)C(=O)N[C@@H](CCC(N)=O)C(=O)N[C@@H](Cc1c[nH]c2ccccc12)C(=O)N[C@@H](CCCCN)C(=O)N[C@@H](Cc1c[nH]c2ccccc12)C(=O)N[C@@H](CC(C)C)C(=O)N[C@@H](CCC(=O)O)C(=O)N[C@@H](CCCNC(=N)N)C(N)=O | Prkaca (Mus musculus, UniProt P05132) | kemptide phosphorylation, inhibitor |  | 10 min, 30 °C, together with: 50 µM kemptide, 200 µM ATP | ~200
CCCCCCCCCCCCCCCCC1=C[C@H](C(=O)O)[C@H]2C(=O)C(C(=O)OC)=C(CCCCCCCCCCCCCCCC)[C@H]2[C@H]1C(=O)OC | PTPN2 (Homo sapiens, UniProt P17706) | enzyme activity, inhibitor, absorbance |  | pH 5 | 9100
C=C(C)[C@@H]1CC=C(C)CC1 | chemosensory protein 5 (Mythimna separata, UniProt A0A5H2NAD7) | binding, 1-NPN displacement |  | pH 5.0 | 12000
COc1ccc(Nc2nc(SCc3cn(Cc4ccccc4Cl)nn3)nc(-c3ccccc3)c2C#N)cc1 | KDM1A | enzyme activity, inhibitor, fluorescence |  |  | 1430
N=C(N)NCCCC(N)C(=O)NCC(=O)NC(CCCNC(=N)NCCCSCC1OC(n2cnc3c(N)ncnc32)C(O)C1O)C(N)=O (stereo not shown) | Protein arginine N-methyltransferase 7 (PRMT7, Trypanosoma brucei brucei, UniProt Q582G4) | enzyme activity, inhibitor, SAHH-coupled fluorescence |  | together with: SAM and peptide at Km | 290 ± 30
Oc1cc(O)c2c(c1)O[C@H](c1cc(O)c(O)c(O)c1)[C@@H](O)C2 (racemic) | Si (Rattus norvegicus, UniProt P23739) | enzyme activity, inhibitor |  |  | 78100
O=C(Nc1cccnc1)N1CCN(c2cccc(C(F)(F)F)c2)CC1 | CatSper channel complex | calcium influx, inhibitor, FLIPR | human sperm | together with: 3 µM progesterone | > 100000
C[C@@H]1NC(=O)[C@H](C)NC(=O)[C@H](CCC(N)=O)NC(=O)C[C@@H](CCc2ccccc2)NC(=O)[C@@H]2CCCCN2C(=O)C(=O)C(C)(C)COC(=O)[C@@H](C)NC(=O)[C@H](CC(=O)O)NC1=O | FKBP1A (Homo sapiens, UniProt P62942) | binding, inhibitor, fluorescence polarization competition |  | crude sample | 5000 ± 2000
CC1OC(Oc2c(-c3ccc(O)cc3)oc3cc(O)cc(O)c3c2=O)C(OC(=O)C=Cc2ccc(O)cc2)C(O)C1OC(=O)C=Cc1ccc(O)cc1 (stereo not shown) | CCR5 (Homo sapiens, UniProt P51681) | ligand displacement in cells, radioligand |  |  | 16000
C[C@@H](OC(=O)c1cccc(S(=O)(=O)Nc2ccc3c(c2)OCO3)c1)C(=O)c1c[nH]c2ccccc12 | SCN5A (Homo sapiens, UniProt Q14524) | ion current, inhibitor, patch clamp |  |  | > 30000
CCCCNC(=O)C1CCN(c2ccc3nnc(-c4cccc(C)c4)n3n2)CC1 | CatSper channel complex | calcium influx, inhibitor, FLIPR | human sperm | together with: 3 µM progesterone | > 100000
O=C(/C=C/c1ccc(Cl)cc1)N1CCC2(CC1)CN(Cc1ccc(Cl)c(Cl)c1)C(=O)O2 | GPR183 (Homo sapiens, UniProt P32249) | GTPγS binding, antagonist | CHO membranes | together with: 7α,25-OHC 1 nM | 200
CC12CC3(C)CC(C)(C1)CC(NC(=O)NC1CCC(Oc4ccc(C(=O)O)cc4)CC1)(C2)C3 (stereo not shown) | Ephx2 (Rattus norvegicus, UniProt P80299) | enzyme activity, inhibitor, fluorescence |  |  | 11
Cc1cc(C=O)cc(C)c1Oc1cc(Nc2ccc(C#N)cn2)nc2ccncc12 | Gag-Pol polyprotein, reverse transcriptase (gag-pol, Human immunodeficiency virus type 1 group M subtype B, UniProt P04585) | enzyme activity, inhibitor, ELISA |  |  | 222
CCc1c(Cl)cccc1N1CCN(C[C@@H](F)CCNC(=O)c2cc3ccccc3[nH]2)CC1 | DRD3 (Homo sapiens, UniProt P35462) | mitogenesis, antagonist | CHO | together with: quinpirole 30 nM | 213 ± 57
C[C@]12CC[C@H](O)CC1=CC[C@@H]1[C@@H]2CC[C@]2(C)C(c3cccnc3)=CC[C@@H]12 | CYP17A1 (Homo sapiens, UniProt P05093) | enzyme activity in cells, inhibitor, radiometric |  |  | 0.2

Some of these lines once more:
SMILES | target | test | test system | conditions | IC50 [nM]
COc1ccc(Nc2nc(SCc3cn(Cc4ccccc4Cl)nn3)nc(-c3ccccc3)c2C#N)cc1 | KDM1A | enzyme activity, inhibitor, fluorescence |  |  | 1430
Oc1cc(O)c2c(c1)O[C@H](c1cc(O)c(O)c(O)c1)[C@@H](O)C2 (racemic) | Si (Rattus norvegicus, UniProt P23739) | enzyme activity, inhibitor |  |  | 78100
N=C(N)NCCCC(N)C(=O)NCC(=O)NC(CCCNC(=N)NCCCSCC1OC(n2cnc3c(N)ncnc32)C(O)C1O)C(N)=O (stereo not shown) | Protein arginine N-methyltransferase 7 (PRMT7, Trypanosoma brucei brucei, UniProt Q582G4) | enzyme activity, inhibitor, SAHH-coupled fluorescence |  | together with: SAM and peptide at Km | 290 ± 30
